Published values collected from several papers.
Each line is one published result; not all experiments were run side by side. Several values in a cell are separate wells, animals, samples, runs or records. Numbers after ± are the reported error.
Gria2: Glutamate receptor 2 (Gria2, Rattus norvegicus, UniProt P19491)
Chain of UniProt P19491 (whole entry, looked up): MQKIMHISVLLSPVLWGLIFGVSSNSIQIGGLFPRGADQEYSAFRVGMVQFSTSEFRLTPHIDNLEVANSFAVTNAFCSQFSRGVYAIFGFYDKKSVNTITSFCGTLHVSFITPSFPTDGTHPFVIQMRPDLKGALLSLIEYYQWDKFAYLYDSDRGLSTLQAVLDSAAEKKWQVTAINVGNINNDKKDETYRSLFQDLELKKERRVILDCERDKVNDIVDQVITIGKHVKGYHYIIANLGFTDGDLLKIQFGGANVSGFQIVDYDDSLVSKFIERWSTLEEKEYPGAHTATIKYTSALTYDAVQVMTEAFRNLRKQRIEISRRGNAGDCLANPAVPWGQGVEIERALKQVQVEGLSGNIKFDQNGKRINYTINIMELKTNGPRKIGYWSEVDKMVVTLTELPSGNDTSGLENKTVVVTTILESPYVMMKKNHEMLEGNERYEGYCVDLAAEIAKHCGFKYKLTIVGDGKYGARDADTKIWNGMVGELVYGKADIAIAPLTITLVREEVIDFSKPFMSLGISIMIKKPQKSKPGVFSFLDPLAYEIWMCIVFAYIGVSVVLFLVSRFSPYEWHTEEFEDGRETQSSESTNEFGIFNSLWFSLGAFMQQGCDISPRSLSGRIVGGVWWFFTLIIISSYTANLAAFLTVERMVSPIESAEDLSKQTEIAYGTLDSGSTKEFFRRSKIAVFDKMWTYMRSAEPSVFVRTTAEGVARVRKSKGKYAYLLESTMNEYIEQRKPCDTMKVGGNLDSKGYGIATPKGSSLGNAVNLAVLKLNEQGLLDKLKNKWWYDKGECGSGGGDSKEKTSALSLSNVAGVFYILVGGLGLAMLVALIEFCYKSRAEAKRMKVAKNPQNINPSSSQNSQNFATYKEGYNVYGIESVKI
Tmem97: Sigma intracellular receptor 2 (Tmem97, Rattus norvegicus, UniProt Q5U3Y7)
Chain of UniProt Q5U3Y7 (whole entry, looked up): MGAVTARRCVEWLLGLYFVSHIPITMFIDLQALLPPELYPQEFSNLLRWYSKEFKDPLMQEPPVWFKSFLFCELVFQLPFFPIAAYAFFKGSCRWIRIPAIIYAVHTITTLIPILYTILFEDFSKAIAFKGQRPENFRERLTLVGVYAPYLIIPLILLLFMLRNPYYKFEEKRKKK
CA9: Carbonic anhydrase 9 (CA9, Homo sapiens, UniProt Q16790)
ADH1 H49Q: ADH1 (Saccharomyces cerevisiae, UniProt P00330, H49Q)
Chain of UniProt P00330 (whole entry, unmodified, looked up): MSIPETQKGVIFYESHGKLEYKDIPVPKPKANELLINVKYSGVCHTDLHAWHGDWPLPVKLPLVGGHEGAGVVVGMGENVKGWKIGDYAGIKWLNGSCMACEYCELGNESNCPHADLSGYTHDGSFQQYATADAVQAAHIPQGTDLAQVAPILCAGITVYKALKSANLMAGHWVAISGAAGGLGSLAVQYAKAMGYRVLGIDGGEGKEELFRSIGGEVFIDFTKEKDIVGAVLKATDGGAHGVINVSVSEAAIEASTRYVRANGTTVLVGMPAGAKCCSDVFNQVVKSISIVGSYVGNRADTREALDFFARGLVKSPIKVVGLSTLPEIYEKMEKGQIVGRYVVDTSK
SIGMAR1: Sigma non-opioid intracellular receptor 1 (SIGMAR1, Cavia porcellus, UniProt Q60492)
Chain of UniProt Q9NWT6 (whole entry, unmodified, looked up): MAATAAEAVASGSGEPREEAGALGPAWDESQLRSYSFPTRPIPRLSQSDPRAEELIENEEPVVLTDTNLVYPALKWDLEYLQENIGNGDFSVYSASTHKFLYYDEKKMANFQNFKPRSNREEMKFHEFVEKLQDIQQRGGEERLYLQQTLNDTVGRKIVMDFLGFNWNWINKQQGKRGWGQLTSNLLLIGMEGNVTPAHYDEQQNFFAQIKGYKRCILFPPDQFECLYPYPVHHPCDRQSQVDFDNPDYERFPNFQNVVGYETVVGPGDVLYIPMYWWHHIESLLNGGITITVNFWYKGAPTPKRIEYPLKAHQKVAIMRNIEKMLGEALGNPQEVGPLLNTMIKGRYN
Chain of UniProt Q60492 (whole entry, looked up): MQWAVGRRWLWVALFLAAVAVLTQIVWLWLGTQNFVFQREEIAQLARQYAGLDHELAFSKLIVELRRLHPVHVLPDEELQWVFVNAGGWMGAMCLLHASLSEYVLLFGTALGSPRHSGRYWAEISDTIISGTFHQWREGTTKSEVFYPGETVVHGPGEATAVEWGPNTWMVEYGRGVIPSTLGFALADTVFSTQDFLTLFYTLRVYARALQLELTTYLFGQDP
Chain of UniProt Q05421 (whole entry, looked up): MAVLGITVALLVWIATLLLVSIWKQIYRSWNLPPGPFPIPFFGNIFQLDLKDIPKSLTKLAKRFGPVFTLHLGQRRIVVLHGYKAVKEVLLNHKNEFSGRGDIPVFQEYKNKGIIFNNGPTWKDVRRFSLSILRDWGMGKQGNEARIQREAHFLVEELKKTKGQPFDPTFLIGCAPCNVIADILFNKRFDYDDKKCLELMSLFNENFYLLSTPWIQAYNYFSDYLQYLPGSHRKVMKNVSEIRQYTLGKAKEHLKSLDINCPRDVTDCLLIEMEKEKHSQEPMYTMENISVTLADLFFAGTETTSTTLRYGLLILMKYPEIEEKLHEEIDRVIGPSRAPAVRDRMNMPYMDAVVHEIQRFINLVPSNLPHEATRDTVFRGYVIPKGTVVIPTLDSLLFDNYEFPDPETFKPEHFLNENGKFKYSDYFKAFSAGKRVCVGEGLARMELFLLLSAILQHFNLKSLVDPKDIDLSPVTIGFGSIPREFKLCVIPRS
Chain of UniProt P23975 (whole entry, looked up): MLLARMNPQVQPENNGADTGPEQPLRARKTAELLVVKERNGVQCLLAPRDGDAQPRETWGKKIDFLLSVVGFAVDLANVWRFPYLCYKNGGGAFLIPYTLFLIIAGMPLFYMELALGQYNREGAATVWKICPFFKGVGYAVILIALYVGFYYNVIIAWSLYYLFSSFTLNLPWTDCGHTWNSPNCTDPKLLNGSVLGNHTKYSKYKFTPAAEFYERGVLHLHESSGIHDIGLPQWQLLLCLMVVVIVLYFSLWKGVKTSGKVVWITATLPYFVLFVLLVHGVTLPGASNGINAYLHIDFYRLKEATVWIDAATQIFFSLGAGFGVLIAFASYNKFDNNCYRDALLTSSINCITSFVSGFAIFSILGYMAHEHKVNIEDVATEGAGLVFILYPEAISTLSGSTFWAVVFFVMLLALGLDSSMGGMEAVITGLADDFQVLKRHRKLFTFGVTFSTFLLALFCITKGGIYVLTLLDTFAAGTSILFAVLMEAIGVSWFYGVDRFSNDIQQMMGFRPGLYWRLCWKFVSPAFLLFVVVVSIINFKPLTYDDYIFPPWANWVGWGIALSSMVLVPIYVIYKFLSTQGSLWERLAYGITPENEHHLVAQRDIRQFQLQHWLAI
Chain of UniProt P50613 (whole entry, looked up): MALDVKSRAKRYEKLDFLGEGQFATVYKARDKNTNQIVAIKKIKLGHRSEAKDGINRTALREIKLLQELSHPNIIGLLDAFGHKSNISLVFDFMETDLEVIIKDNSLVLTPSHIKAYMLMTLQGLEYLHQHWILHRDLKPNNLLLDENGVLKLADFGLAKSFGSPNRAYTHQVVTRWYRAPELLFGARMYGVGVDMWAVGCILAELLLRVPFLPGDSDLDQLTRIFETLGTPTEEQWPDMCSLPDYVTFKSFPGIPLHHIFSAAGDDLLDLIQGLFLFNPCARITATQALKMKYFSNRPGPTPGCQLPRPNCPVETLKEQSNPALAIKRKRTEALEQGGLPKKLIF
Chain of UniProt P03372 (whole entry, looked up): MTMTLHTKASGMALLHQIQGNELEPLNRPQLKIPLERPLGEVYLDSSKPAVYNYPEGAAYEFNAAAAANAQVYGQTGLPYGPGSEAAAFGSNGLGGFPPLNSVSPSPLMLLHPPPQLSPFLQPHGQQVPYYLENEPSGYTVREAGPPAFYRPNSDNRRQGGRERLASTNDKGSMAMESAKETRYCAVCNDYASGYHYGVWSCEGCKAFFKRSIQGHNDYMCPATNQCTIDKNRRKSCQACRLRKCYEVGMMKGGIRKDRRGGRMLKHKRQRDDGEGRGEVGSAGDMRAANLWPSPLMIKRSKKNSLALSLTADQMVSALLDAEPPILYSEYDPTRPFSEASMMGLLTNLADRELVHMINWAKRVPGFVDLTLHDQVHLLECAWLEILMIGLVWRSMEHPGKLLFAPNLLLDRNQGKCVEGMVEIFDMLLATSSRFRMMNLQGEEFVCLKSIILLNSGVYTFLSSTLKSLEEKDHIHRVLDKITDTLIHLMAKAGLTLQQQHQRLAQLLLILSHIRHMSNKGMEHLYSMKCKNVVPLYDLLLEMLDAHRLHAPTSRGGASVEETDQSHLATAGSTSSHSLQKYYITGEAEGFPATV
Chain of UniProt Q9QXZ9 (whole entry, looked up): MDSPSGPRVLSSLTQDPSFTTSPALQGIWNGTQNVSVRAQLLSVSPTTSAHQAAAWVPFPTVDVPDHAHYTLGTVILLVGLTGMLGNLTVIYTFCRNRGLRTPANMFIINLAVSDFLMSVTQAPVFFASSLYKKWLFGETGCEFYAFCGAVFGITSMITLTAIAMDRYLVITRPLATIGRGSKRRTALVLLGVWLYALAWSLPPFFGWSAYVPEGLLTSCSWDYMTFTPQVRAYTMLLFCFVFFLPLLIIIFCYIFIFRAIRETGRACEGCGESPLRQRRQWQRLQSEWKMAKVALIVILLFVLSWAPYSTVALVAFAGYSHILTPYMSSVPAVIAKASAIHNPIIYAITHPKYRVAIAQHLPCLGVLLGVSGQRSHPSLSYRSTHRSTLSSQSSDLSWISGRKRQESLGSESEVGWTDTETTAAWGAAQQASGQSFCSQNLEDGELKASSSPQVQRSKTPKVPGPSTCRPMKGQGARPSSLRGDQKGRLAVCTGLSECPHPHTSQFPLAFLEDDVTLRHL
Chain of UniProt Q8NFJ5 (whole entry, looked up): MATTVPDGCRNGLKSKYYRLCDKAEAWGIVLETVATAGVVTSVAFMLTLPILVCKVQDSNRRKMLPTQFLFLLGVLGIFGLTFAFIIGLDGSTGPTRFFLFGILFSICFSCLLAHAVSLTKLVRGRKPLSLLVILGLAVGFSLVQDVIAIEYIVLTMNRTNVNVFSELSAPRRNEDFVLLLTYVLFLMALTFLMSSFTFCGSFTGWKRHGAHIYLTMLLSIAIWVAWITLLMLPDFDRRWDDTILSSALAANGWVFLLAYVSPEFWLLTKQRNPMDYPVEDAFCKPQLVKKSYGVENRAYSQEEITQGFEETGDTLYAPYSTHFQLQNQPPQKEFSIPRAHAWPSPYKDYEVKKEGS

`NC(CC1(C(=O)O)CC2OC(CO)C(O)C(O)C2O1)C(=O)O` (stereo not drawn) gave a Ki of about 10 µM (Gria2; [3H]AMPA displacement; HEK-293T/17 membranes).
The Ki of `Oc1ccc(N=Nc2ccc(-c3nc4ccccc4s3)cc2)cc1CN(Cc1ccccn1)Cc1ccccn1` is reported as 1.54 µM (Amyloid-beta precursor protein, Aβ40 fibrils (APP, Homo sapiens, UniProt P05067); binding to Aβ fibrils, thioflavin T competition; Aβ 5 µM, added: ThT 2 µM).
The Ki of `OC1Cc2ccccc2CC1N1CCC2(C=Cc3ccc(F)cc32)CC1` (racemic) is reported as 0.19 ± 0.05 µM (Tmem97; radioligand binding; rat liver; added: [3H]DTG, 1 µM dextrallorphan mask).
`COc1c(CCC[P+](c2ccccc2)(c2ccccc2)c2ccccc2)cc2c(c1OC)OCO2.[I-]` gave a GI50 of -5.8 log M (OVCAR-4; SRB).
For `Cc1cccc(C)c1N1C(=O)[C@H](CC2CNc3ccccc32)NC2(CCN(C)CC2)C1=O` (stereo partly drawn), the Ki was over 10 µM (Tmem97).
With `O=C(Nc1ccc2c(c1)C=CCP(=O)(O)O2)c1ccc(Br)cc1` the Ki was 0.0258 µM (CA9).
The inhibition of `CNC1(c2ccccc2Cl)CCCCC1=O` (racemic) is reported as -14% (muscle nicotinic acetylcholine receptor; radioligand binding, antagonist, radioligand displacement; 30 µM).
`C=CC(O)CO` (stereo not drawn) gave a Ki of 830 µM (Cytochrome P450 2E1 (Cyp2e1, Mus musculus, UniProt Q05421); 4-nitrophenol oxidation, inhibitor; B6C3F1 mouse, liver microsomes; 30 min, pH 7.4).
`Nc1nc2c(c(=O)[nH]1)N(C=O)[C@H](CNc1ccc(C(=O)N[C@@H](CCC(=O)O)C(=O)O)cc1)CN2` has a Ki of 0.53 ± 0.18 µM (Proton-coupled folate transporter, E247R; ThTr1 chimera (Homo sapiens, UniProt Q96NT5); [3H]methotrexate uptake, inhibitor, Dixon plot; transfected cells tp-E247R; pH 5.5, added: [3H]methotrexate 0.5 µM).
`COc1cc(Nc2ncc(F)c(Nc3ccc4c(n3)NC(=O)C(C)(C)O4)n2)cc(OC)c1OC` gave an IC50 of over 10 µM (Estrogen receptor (ESR1, Homo sapiens, UniProt P03372)).
`O=C(O)CCC(=O)C(=O)O` has a Ki of ~300 µM and 430 µM (HIF1AN (Homo sapiens, UniProt Q9NWT6, E105A); cosubstrate; pH 7.00, 37.0 °C, mutant E105A, added: CTAD peptide 100 µM).
Under “log2 fold change”, `Oc1ccc2c3c1O[C@H]1[C@@H](O)CC[C@@]4(O)[C@@H](C2)N(CC2CCC2)CC[C@]314` is recorded as 0.342 (Retinoic acid-induced protein 3 (GPRC5A, Homo sapiens, UniProt Q8NFJ5); β-arrestin recruitment, TANGO luminescence, measured: GPRC5A; concentration not given; relative to: basal luminescence).
For `O=C(Nc1ccccc1)Nc1ccc2c(c1)C=CCP(=O)(O)O2`, the Ki was 0.0349 µM (CA9).
The Ki of `Cc1cccc(C)c1N1C(=O)[C@H](CO)NC2(CCN(C)CC2)C1=O` is reported as over 10 µM (Tmem97).
`CC(C)[C@@H]1NC(=O)[C@H](Cc2ccccc2)NC(=O)[C@@H]2NC(=O)[C@H](Cc3ccccc3)NC(=O)[C@@H]3CCCN3C(=O)CNC(=O)[C@H](Cc3ccccc3)NC(=O)[C@@H]3CNCCCC[C@@H](C(=O)O)NC(=O)[C@@H]4NC(=O)[C@H](CC(N)=O)NC(=O)CNC(=O)[C@H]([C@@H](O)C(=O)O)NC(=O)[C@H](CSC[C@@H](NC(=O)[C@H](CCC(N)=O)NC(=O)[C@H](CCCCNC(=O)c5ccc(NN)nc5)NC(=O)[C@@H](N)CS[C@H]4C)C(=O)N[C@@H](CS[C@H]2C)C(=O)N3)NC1=O` [technetium-99m labelled] has a tissue uptake of 5.94 ± 0.49 %ID/g (rat, saline control, kidneys; intravenous, 2 h after tracer, tracer 24 h after reperfusion).
For `CCCC[C@H](NC(=O)[C@H](C[SeH])NC(=O)CNC(=O)[C@H](CCCCN)NC(=O)[C@H](CCCNC(=N)N)NC(=O)[C@H](CCCCN)NC(=O)[C@H](C[SeH])NC(=O)CNC(=O)[C@H](CCCCN)NC(=O)[C@H](CCCNC(=N)N)NC(=O)[C@H](CCCCN)NC(=O)[C@H](C[SeH])NC(=O)[C@H](C)NC(C)=O)C(N)=O`, the Ki was 0.024 µM (Genome polyprotein, NS2B-NS3 protease (ZIKV, UniProt A0A024B7W1); enzyme activity, inhibitor; Zika virus).
`C[C@H]1CN(c2n[nH]c3nc(N[C@H]4CC[C@H](NS(=O)(=O)CCC(F)(F)F)CC4)ncc23)CCO1` gave a relative abundance of 1.01 (Fatty acid synthase (FASN, Homo sapiens, UniProt P49327); inhibitor, Kinobeads competition profiling; 0.16 µM; relative to: vehicle).
`COc1ccc(N2C(=O)N(c3c(C)cccc3Cl)Cc3cnc(Nc4ccc(C5CCN(C)CC5)cc4OC)nc32)nc1` has an inhibition of -1.19% (CDK7 (Homo sapiens, UniProt P50613); kinase activity; 0.5 µM).
The Ki of `Cn1c(=O)n(CCCCN2CCC3(CC2)OCc2ccccc23)c2ccccc21` is reported as 0.00231 µM (Sigma-2 receptor (Cavia porcellus, UniProt H0V073); binding, high-affinity site; guinea pig brain membranes; added: 200 nM [3H]DTG, (+)-pentazocine present).
The Ki of `NC(=O)c1ccc[n+]([C@@H]2O[C@H](COP(=O)([O-])OP(=O)(O)OC[C@H]3O[C@@H](n4cnc5c(N)ncnc54)[C@H](O)[C@@H]3O)[C@@H](O)[C@H]2O)c1` is reported as 410 µM (ADH1 H49Q; enzyme activity, inhibitor; pH 7.3, 30 °C).
The Ki of `COc1cc2c(cc1OC)CN(CCc1ccc(NC(=O)c3cccc4c(=O)c5cccc(OC)c5[nH]c34)cc1)CC2` is reported as 0.878 µM (SLC6A2 (Homo sapiens, UniProt P23975); binding).
`Cc1ccc2c(c1)C=CC21CCN(C2Cc3ccccc3CC2O)CC1` (racemic) has a Ki of 0.37 ± 0.15 µM (Tmem97; binding, radioligand displacement; rat liver membranes; added: [3H]DTG, dextrallorphan 1 µM masking).
`CC=O` gave a Ki of 550 µM (ADH1 H49Q; inhibitor; pH 7.3).
For `Cc1ccc(C(=O)Nc2ccc3c(c2)C=CCP(=O)(O)O3)cc1`, the Ki was 0.0205 µM (CA9).
`Nc1ncnc2c1ncn2[C@@H]1O[C@@H]2COP(=O)(O)O[C@H]3[C@@H](O)[C@H](n4cnc5c(=O)[nH]cnc54)O[C@@H]3COP(=O)(O)O[C@H]2[C@H]1O` — result for “pathway fold enrichment”: 15 (HFF-1; RNA sequencing, measured: Reactome R-HSA-5627117; downregulated pathway; relative to: Zika virus alone).
`COc1cc2c(Oc3ccc4[nH]c(C)cc4c3F)ccnc2cc1OCC1(N)CC1`: “QTc prolongation incidence” 9.1% (paediatric refractory sarcoma patients; 12 mg).
The Ki of `OC(c1ccc(F)cc1)C(F)(F)CCN1CCC(O)(c2ccc(Cl)cc2)CC1` (racemic) is reported as 0.0018 ± 0.00052 µM (SIGMAR1).
For `C[C@@H](O)[C@@H](CO)NC(=O)[C@@H](CCCNC(=N)N)NC(=O)[C@@H]1CCCN1C(=O)[C@@H]1CSSC[C@H](NC(=O)[C@H](Cc2ccccc2)NC(=O)CN2CCN(CC(=O)O)CCN(CC(=O)O)CCN(CC(=O)O)CC2)C(=O)N[C@@H](Cc2ccc(O)cc2)C(=O)N[C@@H](Cc2ccccc2)C(=O)N[C@@H](CCC(N)=O)C(=O)N[C@@H](CC(N)=O)C(=O)N1` [gallium-68 labelled], the tissue uptake was 0.05 %ID/g (Wistar rat, stomach; intravenous, 8 MBq, 120 min, group mean).
For `O=C(Nc1ccc2c(c1)C=CCP(=O)(O)O2)c1ccccc1I`, the Ki was 0.0146 µM (CA9).
`COc1ccc(S(=O)(=O)N2CCCCC2)cc1C` has a Ki of 0.047 µM (Melanopsin (Opn4, Mus musculus, UniProt Q9QXZ9); binding).
`C[C@H]1N/C(=C\[N+](=O)[O-])N(Cc2ccc(Cl)nc2)[C@H]1C` gave a Ki of 0.00214 ± 0.00045 µM (radioligand binding; Musca domestica head membranes; added: [3H]imidacloprid).
`O=C(Nc1ccc(C(F)(F)F)cc1)Nc1ccc2c(c1)C=CCP(=O)(O)O2` gave a Ki of 0.0427 µM (CA9).
`CCO` has a Ki of 27000 µM (ADH1 H49Q; inhibitor; pH 7.3).
`CC[C@H](C)[C@H](NC(=O)[C@H](Cc1ccccc1)NC(=O)[C@H](CCC(=O)O)NC(=O)[C@H](CCCNC(=N)N)NC(=O)[C@H](C)NC(=O)[C@H](C)NC(=O)[C@H](CCC(N)=O)NC(=O)[C@H](CCC(=O)O)NC(=O)[C@H](CCC(=O)O)NC(=O)[C@H](CC(C)C)NC(=O)[C@H](Cc1ccc(O)cc1)NC(=O)[C@H](CO)NC(=O)[C@H](CO)NC(=O)[C@@H](NC(=O)[C@H](CC(=O)O)NC(=O)[C@H](CO)NC(=O)[C@@H](NC(=O)[C@H](Cc1ccccc1)NC(=O)[C@@H](NC(=O)CNC(=O)[C@H](CCC(=O)O)NC(=O)[C@H](C)NC(=O)CCc1c[nH]cn1)[C@@H](C)O)[C@@H](C)O)C(C)C)C(=O)N[C@@H](C)C(=O)N[C@@H](Cc1c[nH]c2ccccc12)C(=O)N[C@@H](CC(C)C)C(=O)N[C@H](C(=O)N[C@@H](CCCNC(=N)N)C(=O)NCC(=O)N[C@@H](CCCNC(=N)N)C(=O)N[C@@H](CCCCNC(=O)COCCOCCNC(=O)COCCOCCNC(=O)CC[C@H](NC(=O)CCCCCCCCCCCCCCCCC(=O)O)C(=O)O)C(=O)NCC(=O)NCC(=O)N[C@@H](CO)C(=O)N[C@@H](CCCCNc1c(NCCCCCN(O)C(=O)CCC(=O)NCCCCCN(O)C(=O)CCC(=O)NCCCCCN(O)C(C)=O)c(=O)c1=O)C(=O)O)C(C)C` [zirconium-89 labelled] gave a tissue uptake of 0.49 %ID/g (gamma counting; rat, stomach-duodenum; intravenous, 3 nmol/kg, 4 h).
`NC(CC1(C(=O)O)CC2OC(CO)C(O)C(N)C2O1)C(=O)O` (stereo not drawn) gave a Ki of 0.929 µM (Grik2 (Rattus norvegicus, UniProt P42260); binding; HEK293T/17 membranes; added: [3H]kainate).
`Cc1cccc(C)c1N1C(=O)CNC2(CCN(C)CC2)C1=O` gave a Ki of over 10 µM (SIGMAR1).
For `COc1ccc(C(=O)Nc2ccc3c(c2)C=CCP(=O)(O)O3)cc1`, the Ki was 0.0101 µM (CA9).
For `O=[As](O)(O)c1ccc(Cc2ccc([As](=O)(O)O)cc2)cc1`, the Ki was 0.24 µM (Autotaxin (ENPP2, Homo sapiens, UniProt Q13822); lysoPLD activity; added: FS-3).
`O=C(Nc1ccc(Cl)cc1)Nc1ccc2c(c1)C=CCP(=O)(O)O2` gave a Ki of 0.0548 µM (CA9).
`COCC1OC2CC(CC(N)C(=O)O)(C(=O)O)OC2C(O)C1O` (stereo not drawn) gave a Ki of over 10 µM (Gria2; [3H]AMPA displacement; HEK-293T/17 membranes).
With `O=C(Nc1ccc2c(c1)C=CCP(=O)(O)O2)c1ccc([N+](=O)[O-])cc1` the Ki was 0.0294 µM (CA9).
For `OC1Cc2ccccc2CC1N1CCC2(C=Cc3cc(F)ccc32)CC1` (racemic), the Ki was 0.25 ± 0.14 µM (Tmem97; radioligand binding; rat liver; added: [3H]DTG, 1 µM dextrallorphan mask).

A few entries again:
`CC[C@H](C)[C@H](NC(=O)[C@H](Cc1ccccc1)NC(=O)[C@H](CCC(=O)O)NC(=O)[C@H](CCCNC(=N)N)NC(=O)[C@H](C)NC(=O)[C@H](C)NC(=O)[C@H](CCC(N)=O)NC(=O)[C@H](CCC(=O)O)NC(=O)[C@H](CCC(=O)O)NC(=O)[C@H](CC(C)C)NC(=O)[C@H](Cc1ccc(O)cc1)NC(=O)[C@H](CO)NC(=O)[C@H](CO)NC(=O)[C@@H](NC(=O)[C@H](CC(=O)O)NC(=O)[C@H](CO)NC(=O)[C@@H](NC(=O)[C@H](Cc1ccccc1)NC(=O)[C@@H](NC(=O)CNC(=O)[C@H](CCC(=O)O)NC(=O)[C@H](C)NC(=O)CCc1c[nH]cn1)[C@@H](C)O)[C@@H](C)O)C(C)C)C(=O)N[C@@H](C)C(=O)N[C@@H](Cc1c[nH]c2ccccc12)C(=O)N[C@@H](CC(C)C)C(=O)N[C@H](C(=O)N[C@@H](CCCNC(=N)N)C(=O)NCC(=O)N[C@@H](CCCNC(=N)N)C(=O)N[C@@H](CCCCNC(=O)COCCOCCNC(=O)COCCOCCNC(=O)CC[C@H](NC(=O)CCCCCCCCCCCCCCCCC(=O)O)C(=O)O)C(=O)NCC(=O)NCC(=O)N[C@@H](CO)C(=O)N[C@@H](CCCCNc1c(NCCCCCN(O)C(=O)CCC(=O)NCCCCCN(O)C(=O)CCC(=O)NCCCCCN(O)C(C)=O)c(=O)c1=O)C(=O)O)C(C)C` [zirconium-89 labelled] gave a tissue uptake of 0.49 %ID/g (gamma counting; rat, stomach-duodenum; intravenous, 3 nmol/kg, 4 h).
The Ki of `Cc1cccc(C)c1N1C(=O)[C@H](CO)NC2(CCN(C)CC2)C1=O` is reported as over 10 µM (Tmem97).
`NC(CC1(C(=O)O)CC2OC(CO)C(O)C(O)C2O1)C(=O)O` (stereo not drawn) gave a Ki of about 10 µM (Gria2; [3H]AMPA displacement; HEK-293T/17 membranes).
